Experimental data gathered from unrelated publications.
Numbered parts are unrelated; each lists some results of a single study.
UniProt Q9UM73, sequence (whole entry, unmodified, looked up): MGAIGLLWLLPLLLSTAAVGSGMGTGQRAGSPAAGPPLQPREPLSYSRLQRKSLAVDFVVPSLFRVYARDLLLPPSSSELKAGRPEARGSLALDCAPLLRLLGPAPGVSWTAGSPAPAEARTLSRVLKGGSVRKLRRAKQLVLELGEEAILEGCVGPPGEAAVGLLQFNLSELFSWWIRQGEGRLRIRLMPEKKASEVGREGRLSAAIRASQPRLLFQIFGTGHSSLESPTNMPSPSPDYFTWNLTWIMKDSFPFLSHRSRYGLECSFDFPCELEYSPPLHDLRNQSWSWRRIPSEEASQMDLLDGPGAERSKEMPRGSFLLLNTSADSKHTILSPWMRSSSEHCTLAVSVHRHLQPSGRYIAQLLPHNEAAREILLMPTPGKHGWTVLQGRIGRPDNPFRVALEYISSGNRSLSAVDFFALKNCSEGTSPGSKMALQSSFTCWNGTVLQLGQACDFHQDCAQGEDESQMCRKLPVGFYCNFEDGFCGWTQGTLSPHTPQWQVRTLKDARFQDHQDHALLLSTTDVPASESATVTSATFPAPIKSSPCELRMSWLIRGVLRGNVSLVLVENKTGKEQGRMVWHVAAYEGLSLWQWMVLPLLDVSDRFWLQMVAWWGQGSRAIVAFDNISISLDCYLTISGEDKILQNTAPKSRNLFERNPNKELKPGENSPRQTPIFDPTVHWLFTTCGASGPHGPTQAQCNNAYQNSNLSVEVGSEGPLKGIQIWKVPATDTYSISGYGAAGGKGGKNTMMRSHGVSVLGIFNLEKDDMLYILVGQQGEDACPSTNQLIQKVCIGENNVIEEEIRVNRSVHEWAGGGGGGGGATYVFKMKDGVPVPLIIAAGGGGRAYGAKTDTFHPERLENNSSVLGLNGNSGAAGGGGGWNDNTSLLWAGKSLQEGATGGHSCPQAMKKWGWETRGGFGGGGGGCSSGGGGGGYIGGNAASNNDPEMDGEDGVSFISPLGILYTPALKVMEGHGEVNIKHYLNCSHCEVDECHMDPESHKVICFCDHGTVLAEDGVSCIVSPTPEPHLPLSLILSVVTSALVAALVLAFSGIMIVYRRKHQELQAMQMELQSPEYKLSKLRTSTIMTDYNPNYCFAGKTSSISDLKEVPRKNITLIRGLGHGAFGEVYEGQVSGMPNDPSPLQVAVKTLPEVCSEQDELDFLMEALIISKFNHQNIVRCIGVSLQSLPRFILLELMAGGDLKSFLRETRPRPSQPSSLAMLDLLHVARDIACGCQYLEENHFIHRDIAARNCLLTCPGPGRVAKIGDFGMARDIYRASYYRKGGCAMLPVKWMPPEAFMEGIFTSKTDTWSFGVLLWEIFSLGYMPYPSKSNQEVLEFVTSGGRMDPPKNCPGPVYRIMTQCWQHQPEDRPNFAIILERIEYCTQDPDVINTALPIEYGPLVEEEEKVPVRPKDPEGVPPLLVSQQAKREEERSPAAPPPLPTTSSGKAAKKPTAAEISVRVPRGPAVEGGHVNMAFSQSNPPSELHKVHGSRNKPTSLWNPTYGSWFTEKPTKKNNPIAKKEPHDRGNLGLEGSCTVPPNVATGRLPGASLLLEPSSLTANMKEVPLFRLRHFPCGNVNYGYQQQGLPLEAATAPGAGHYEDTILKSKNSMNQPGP
UniProt P49137, sequence (whole entry, looked up): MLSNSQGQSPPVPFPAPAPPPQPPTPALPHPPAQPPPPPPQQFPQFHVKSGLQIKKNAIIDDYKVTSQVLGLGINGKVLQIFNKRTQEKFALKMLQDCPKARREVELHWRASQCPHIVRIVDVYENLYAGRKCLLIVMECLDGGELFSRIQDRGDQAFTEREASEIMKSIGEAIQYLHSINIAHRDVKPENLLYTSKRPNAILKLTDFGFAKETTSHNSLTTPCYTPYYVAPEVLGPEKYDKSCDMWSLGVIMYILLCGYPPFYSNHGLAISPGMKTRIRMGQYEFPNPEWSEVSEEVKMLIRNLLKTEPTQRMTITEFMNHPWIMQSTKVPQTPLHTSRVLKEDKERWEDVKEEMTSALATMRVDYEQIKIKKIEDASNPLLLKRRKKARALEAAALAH
UniProt Q86Z02, sequence (whole entry, looked up): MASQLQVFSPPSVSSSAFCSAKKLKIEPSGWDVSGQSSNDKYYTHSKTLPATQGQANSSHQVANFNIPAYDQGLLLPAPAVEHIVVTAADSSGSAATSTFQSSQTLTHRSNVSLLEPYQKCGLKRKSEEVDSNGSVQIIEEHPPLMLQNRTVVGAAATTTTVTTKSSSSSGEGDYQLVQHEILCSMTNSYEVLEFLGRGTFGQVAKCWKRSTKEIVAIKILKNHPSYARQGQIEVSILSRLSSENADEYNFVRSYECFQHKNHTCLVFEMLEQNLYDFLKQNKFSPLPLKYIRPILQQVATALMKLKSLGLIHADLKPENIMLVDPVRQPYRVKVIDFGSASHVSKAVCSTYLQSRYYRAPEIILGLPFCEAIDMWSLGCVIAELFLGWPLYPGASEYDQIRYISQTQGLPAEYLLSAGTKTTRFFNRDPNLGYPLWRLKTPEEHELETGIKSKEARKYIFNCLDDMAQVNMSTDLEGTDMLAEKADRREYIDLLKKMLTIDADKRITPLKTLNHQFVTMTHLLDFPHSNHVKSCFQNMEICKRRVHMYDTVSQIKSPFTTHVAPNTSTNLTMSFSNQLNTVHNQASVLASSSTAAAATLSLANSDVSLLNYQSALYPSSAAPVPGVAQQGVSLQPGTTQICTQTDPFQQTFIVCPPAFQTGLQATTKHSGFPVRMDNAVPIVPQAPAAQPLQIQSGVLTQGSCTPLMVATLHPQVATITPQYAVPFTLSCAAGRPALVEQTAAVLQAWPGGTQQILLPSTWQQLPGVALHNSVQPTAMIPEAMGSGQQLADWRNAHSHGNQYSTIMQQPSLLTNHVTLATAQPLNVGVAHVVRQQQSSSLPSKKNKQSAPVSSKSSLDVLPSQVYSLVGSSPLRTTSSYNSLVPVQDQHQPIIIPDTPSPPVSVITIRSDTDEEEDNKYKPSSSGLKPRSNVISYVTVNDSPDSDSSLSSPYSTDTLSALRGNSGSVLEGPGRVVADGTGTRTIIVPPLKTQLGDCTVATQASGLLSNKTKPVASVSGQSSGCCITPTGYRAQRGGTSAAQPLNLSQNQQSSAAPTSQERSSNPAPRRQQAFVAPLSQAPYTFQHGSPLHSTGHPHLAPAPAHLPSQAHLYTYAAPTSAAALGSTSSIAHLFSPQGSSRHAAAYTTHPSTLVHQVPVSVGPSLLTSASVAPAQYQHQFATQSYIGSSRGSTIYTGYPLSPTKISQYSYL
UniProt Q16832, sequence (whole entry, looked up): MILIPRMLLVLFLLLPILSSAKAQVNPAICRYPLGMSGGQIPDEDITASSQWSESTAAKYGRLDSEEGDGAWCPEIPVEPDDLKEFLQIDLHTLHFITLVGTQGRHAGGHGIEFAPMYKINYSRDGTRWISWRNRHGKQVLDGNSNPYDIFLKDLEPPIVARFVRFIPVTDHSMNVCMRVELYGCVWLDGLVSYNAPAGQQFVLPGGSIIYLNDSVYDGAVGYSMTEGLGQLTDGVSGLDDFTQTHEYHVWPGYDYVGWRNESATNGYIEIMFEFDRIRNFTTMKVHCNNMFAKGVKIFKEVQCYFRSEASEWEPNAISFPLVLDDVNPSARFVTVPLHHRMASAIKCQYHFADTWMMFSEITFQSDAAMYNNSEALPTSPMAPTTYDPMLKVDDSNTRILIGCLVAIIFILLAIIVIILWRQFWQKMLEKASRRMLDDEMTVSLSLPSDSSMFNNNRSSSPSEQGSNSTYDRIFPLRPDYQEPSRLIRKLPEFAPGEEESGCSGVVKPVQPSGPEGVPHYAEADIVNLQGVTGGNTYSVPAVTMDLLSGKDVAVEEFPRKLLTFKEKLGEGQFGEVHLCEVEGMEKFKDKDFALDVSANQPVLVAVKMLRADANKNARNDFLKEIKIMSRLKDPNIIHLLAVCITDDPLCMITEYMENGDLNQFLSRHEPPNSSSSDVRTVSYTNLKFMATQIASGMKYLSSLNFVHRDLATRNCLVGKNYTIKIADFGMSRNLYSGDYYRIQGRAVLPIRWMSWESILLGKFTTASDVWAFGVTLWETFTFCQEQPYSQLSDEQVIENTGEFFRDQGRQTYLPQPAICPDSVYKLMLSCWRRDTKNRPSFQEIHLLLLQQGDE
UniProt Q00526, sequence (whole entry, looked up): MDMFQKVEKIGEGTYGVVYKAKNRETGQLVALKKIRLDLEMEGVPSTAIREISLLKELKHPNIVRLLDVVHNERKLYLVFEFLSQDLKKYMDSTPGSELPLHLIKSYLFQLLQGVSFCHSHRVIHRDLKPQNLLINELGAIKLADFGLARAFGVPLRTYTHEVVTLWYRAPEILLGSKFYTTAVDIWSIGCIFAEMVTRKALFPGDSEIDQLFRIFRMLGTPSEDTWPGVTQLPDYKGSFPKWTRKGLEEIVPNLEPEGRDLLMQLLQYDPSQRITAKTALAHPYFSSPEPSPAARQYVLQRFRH
UniProt P51817, sequence (whole entry, looked up): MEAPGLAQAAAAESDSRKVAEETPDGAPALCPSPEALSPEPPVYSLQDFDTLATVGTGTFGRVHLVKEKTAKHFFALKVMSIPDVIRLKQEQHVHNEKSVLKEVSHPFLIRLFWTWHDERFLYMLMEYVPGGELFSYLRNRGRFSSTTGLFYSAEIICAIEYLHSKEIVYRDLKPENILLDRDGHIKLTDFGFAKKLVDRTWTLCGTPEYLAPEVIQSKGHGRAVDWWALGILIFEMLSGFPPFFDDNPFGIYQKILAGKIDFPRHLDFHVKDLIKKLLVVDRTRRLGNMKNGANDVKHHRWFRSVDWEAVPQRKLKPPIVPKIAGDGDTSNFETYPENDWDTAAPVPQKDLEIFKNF
UniProt Q8TDX7, sequence (whole entry, looked up): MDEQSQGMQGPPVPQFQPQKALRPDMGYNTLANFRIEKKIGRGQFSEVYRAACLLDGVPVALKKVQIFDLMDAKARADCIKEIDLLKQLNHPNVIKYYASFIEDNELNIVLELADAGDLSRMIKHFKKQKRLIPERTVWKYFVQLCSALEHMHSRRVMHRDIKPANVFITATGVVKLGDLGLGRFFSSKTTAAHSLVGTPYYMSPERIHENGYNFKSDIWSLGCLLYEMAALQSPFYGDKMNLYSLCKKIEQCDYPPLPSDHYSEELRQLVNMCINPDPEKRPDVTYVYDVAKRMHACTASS

Sample 1
SMILES: COc1cccc(-c2cc(=O)c3ccccc3o2)c1N
Read-out: enzyme activity
Action: inhibitor
Concentration: 0.5 µM
Baseline: control
target	remaining activity [%]
PRKX (Homo sapiens, UniProt P51817)	101
FYN (Homo sapiens, UniProt P06241)	97.3
FER (Homo sapiens, UniProt P16591)	97.6
LIM domain kinase 1 (LIMK1, Homo sapiens, UniProt P53667)	96.1
TAOK3 (Homo sapiens, UniProt Q9H2K8)	77
MATK (Homo sapiens, UniProt P42679)	88.6
AKT1 (Homo sapiens, UniProt P31749)	93.8
CDC42BPA (Homo sapiens, UniProt Q5VT25)	98.5
ALK (Homo sapiens, UniProt Q9UM73)	84.1
FGR (Homo sapiens, UniProt P09769)	94.8
SRC (Homo sapiens, UniProt P12931)	92.6
Cyclin-dependent kinase 3, with cyclin E (CDK3, Homo sapiens, UniProt Q00526)	109
Insulin receptor (INSR, Homo sapiens, UniProt P06213)	106
NEK11 (Homo sapiens, UniProt Q8NG66)	92.9
FLT4 (Homo sapiens, UniProt P35916)	90.8
PASK (Homo sapiens, UniProt Q96RG2)	86.1
STK25 (Homo sapiens, UniProt O00506)	106
HIPK1 (Homo sapiens, UniProt Q86Z02)	104
MARK3 (Homo sapiens, UniProt P27448)	86.7
PKN1 (Homo sapiens, UniProt Q16512)	102
ITK (Homo sapiens, UniProt Q08881)	96.5
NLK (Homo sapiens, UniProt Q9UBE8)	96.4

Sample 2
Organism: Plasmodium berghei
Cell line: Huh-7
Strain: liver stage
Concentration: 10 µM
Time: 24 h
Baseline: control
SMILES	parasite load
CC(=O)O[C@H]1C[C@@H]2CC[C@@H]3[C@H](CC[C@@]4(C)[C@H]3C[C@H]([N+]3(C)CCCCC3)[C@@H]4OC(C)=O)[C@@]2(C)C[C@@H]1[N+]1(C)CCCCC1	108%
Cn1c(=O)c2c(ncn2C)n(C)c1=O	108%
CC(=O)CC(c1ccccc1)c1c(O)c2ccccc2oc1=O (centres unmarked)	105%
CN1[C@@H]2CC[C@H]1C[C@@H](OC(=O)C(CO)c1ccccc1)C2 (some centres unmarked)	119%
COc1cc2c(cc1OC)C(=O)C(CC1CCN(Cc3ccccc3)CC1)C2 (centres unmarked)	95%
COC(=O)C1=C(C)NC(C)=C(C(=O)OC)C1c1ccccc1[N+](=O)[O-]	106%
CC[C@@]1([C@H]2O[C@H]([C@H]3O[C@@](O)(CO)[C@H](C)C[C@@H]3C)C[C@H]2C)CC[C@H]([C@@]2(C)CC[C@]3(C[C@H](O)[C@@H](C)[C@@H]([C@H](C)[C@H](OC)[C@@H](C)C(=O)O)O3)O2)O1	0.86%
C1CCc2nnnn2CC1	95.8%
CNC(=O)Oc1ccc2c(c1)[C@]1(C)CCN(C)[C@@H]1N2C	86.2%
CN1C[C@H](C(=O)N[C@]2(C)O[C@@]3(O)[C@@H]4CCCN4C(=O)[C@H](Cc4ccccc4)N3C2=O)C[C@@H]2c3cccc4[nH]cc(c34)C[C@H]21	73.9%
CN(C)CCC=C1c2ccccc2COc2ccccc21	98.5%
O=C(CCCN1CCC(O)(c2ccc(Cl)cc2)CC1)c1ccc(F)cc1	68.6%

Sample 3
Host: mouse
Sample: microsomes or S9
Concentration: 2 µM
Time: 0.5 h
SMILES	remaining compound
COc1cccc2c(C(C(=O)O)N3CCN(C4=Nc5ccccc5Oc5ccccc54)CC3)c[nH]c12 (centres unmarked)	74.2%
O=S1(=O)N=C(Nc2cccc3[nH]ccc23)c2ccccc21	49%
CN(CC(=O)O)C(=O)c1cc(S(=O)(=O)N(C)C)cs1	72.4%
O=C(c1ccc2nncn2c1)N1CC(c2ccccc2)C2(CCC2)C1 (centres unmarked)	73.8%
COc1ccc(CCc2nc(CCS(C)(=O)=O)c(O)c(C(=O)O)c2C(=O)O)cc1	81.3%
CN(C)S(=O)(=O)c1cc(C(=O)NCC(c2ccccc2)N2CCOCC2)c(Cl)cc1Cl (centres unmarked)	0.568%
COc1ncc(NC(=O)CCCNC(=O)OC(C)(C)C)cc1C#N	16.7%
Cc1cc(C)n(-c2ccc(C(=O)NCc3ccc(C)o3)cn2)n1	33.3%
O=C(OCCCn1ccccc1=O)c1cncc2ccccc12	0.0187%
O=C(NC1CCN(Cc2ccc(Cl)c(Cl)c2)CC1)c1cc2ccc3ccccc3c2o1	62.7%
Cc1nn(C)cc1-c1c2c(=O)[nH]n(C(C)C)c2nc2[nH]c(=O)n(C)c12	> 100%
OCCNc1nc(Cl)nc(Nc2ccc3c(c2)OCO3)n1	18.4%

Sample 4
SMILES: O=C(Nc1cccnn1)N1CC(C/C=C/c2cncc(Oc3ccc(C(F)(F)F)cn3)n2)C1
Read-out: cell-free assay
Method: competition with immobilised ligand
Concentration: 1 µM
target	remaining binding
Ribosomal protein S6 kinase alpha-3, C-terminal kinase domain (RPS6KA3, Homo sapiens, UniProt P51812)	89%
DSTYK (Homo sapiens, UniProt Q6XUX3)	65%
IRAK3 (Homo sapiens, UniProt Q9Y616)	100%
EPHA1 (Homo sapiens, UniProt P21709)	100%
Aurora kinase B (AURKB, Homo sapiens, UniProt Q96GD4)	59%
MKNK1 (Homo sapiens, UniProt Q9BUB5)	67%
WEE2 (Homo sapiens, UniProt P0C1S8)	100%
NEK7 (Homo sapiens, UniProt Q8TDX7)	100%
EIF2AK2 (Homo sapiens, UniProt P19525)	100%
RIPK4 (Homo sapiens, UniProt P57078)	74%
MAPKAPK2 (Homo sapiens, UniProt P49137)	100%
GAK (Homo sapiens, UniProt O14976)	100%
MAP2K6 (Homo sapiens, UniProt P52564)	100%
Tyrosine-protein kinase JAK3, JH1 (JAK3, Homo sapiens, UniProt P52333)	100%
ALK (Homo sapiens, UniProt Q9UM73, C1156Y)	81%
PIK3C3 (Homo sapiens, UniProt Q8NEB9)	88%
CAMK2D (Homo sapiens, UniProt Q13557)	100%
RET (Homo sapiens, UniProt P07949, M918T)	96%
DCLK2 (Homo sapiens, UniProt Q8N568)	100%
CDK14 (Homo sapiens, UniProt O94921)	100%
LTK (Homo sapiens, UniProt P29376)	100%
EGFR (Homo sapiens, UniProt P00533, L858R/T790M)	82%
DDR2 (Homo sapiens, UniProt Q16832)	80%
KIT (Homo sapiens, UniProt P10721, D816H)	74%
STK38L (Homo sapiens, UniProt Q9Y2H1)	100%
